Results pooled from the literature.
Numbered parts are unrelated; each lists some results of a single study.

Set 1
Target: Ras GTPase-activating protein-binding protein 1, C-terminal RGG region (G3BP1, Homo sapiens, UniProt Q13283)
UniProt Q13283, sequence (whole entry, looked up): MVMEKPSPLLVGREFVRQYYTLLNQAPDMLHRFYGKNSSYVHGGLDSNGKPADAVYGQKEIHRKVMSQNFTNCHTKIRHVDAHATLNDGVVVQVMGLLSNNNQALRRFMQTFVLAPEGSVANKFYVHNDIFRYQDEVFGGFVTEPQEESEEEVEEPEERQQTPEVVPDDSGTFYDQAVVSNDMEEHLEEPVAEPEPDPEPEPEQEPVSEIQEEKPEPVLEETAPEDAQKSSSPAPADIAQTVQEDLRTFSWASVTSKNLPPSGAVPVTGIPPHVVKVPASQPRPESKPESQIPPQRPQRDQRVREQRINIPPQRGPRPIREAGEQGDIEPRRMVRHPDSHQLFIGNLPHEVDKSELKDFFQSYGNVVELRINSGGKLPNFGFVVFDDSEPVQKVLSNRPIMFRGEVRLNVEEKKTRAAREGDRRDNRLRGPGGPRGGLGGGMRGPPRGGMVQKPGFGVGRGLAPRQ
Technique: RNA Bind-n-Seq
Form: RNA
Matrix: in vitro
Concentration: 1 µM
Setting: whole 134-nt RNA, ends assumed
Together with: 150 mM KCl
Relative to: input library
Reading: higher = stronger binding
All sequences stand within: GGGAGUUCUACAGUCCGACGAUC … UGGAAUUCUCGGGUGUCAAGG
Oligonucleotide | log2 enrichment
CCUGUGCUACACAUCGUAUGUACCGAAUCGGGGAAAAAAGGGAAAAAAGGGGAAAAAAGGGAAAGUAUUAUGUUACGCCGUUCGGAUCUG | -1.38
AAGUCCUGUGCUACACAUCGUAUGUACCGAAUCGGGUGGGAAAAAAAGGGUUUGGGAAAGUAUUAUGUUACGCCGUUCGGAUCUGCACUU | 0.692
UUUUACAUUUAUACACAUGUAUUGGCUUCCUUUUACACUAUUAGGCGGUCAAGAAGCAGAUCGAGACGGCGGUCACAUUCUAAGUCUAGG | 0.122
CCUGUGCUACACAUCGUAUGUACCGAAUCGGGAAAAAAAGGAAAAAAAGGGAAAAAAAGGAAAGUAUUAUGUUACGCCGUUCGGAUCUGC | -1.87
AGUCCUGUGCUACACAUCGUAUGUACCGAAUCGGGUGGGUUUUUGGGUUUUUUUGGGAAAGUAUUAUGUUACGCCGUUCGGAUCUGCACU | -0.276
GCAUAAUGGAUAUUUUUUAACUUGGCGAGAUGUGUCUCUCAAUCCUGUGGCUUUGGUGAGAGAGUGUGCAGAGAGCAAUGAUAGCAAAUA | -0.74
CCUGUGCUACACAUCGUAUGUACCGAAUCAAACCCCCCCAAAUUUUUAAAUUUUUUUAAAAAAGUAUUAUGUUACGCCGUUCGGAUCUGC | -1.07
CCUGUGCUACACAUCGUAUGUACCGAAUCGGGAAAAAAAGGGAAAAAAAGGGAAAAAGGGAAAGUAUUAUGUUACGCCGUUCGGAUCUGC | -1.78
CACAGACAACACGCACCCACACAGAAACAGAGGGAAGGGGUUGGGAUGGGGACAGGGUGCACAGCAGGGCGGGGUAGGACCCCAGCCCCU | -0.348
UAACUUUAGAGGAGGGUCUGAUGGAUAUGGCAGUGGACGUGGAUUUGGGGAUGGCUAUAAUGGGUAUGGAGGAGGACCUGGAGGUGGCAA | -1.02
GCAGGAAGUAAAAACAAAUGGAAAUGCUUCGGAUAGUGGCAGGGGUGGGGGUUGCUAAGGAAAGGGUGGGAUGGGAGCGGGUAAAGAGUU | 1.74
UGGGAGGUGGAUUUUGUUUAUUUUUUUAGCUCAUUUCCAGGGGUGGGAAUUUUUUUUUAAUAUGUGUCAUGAAUAAAGUUGUUUGUGAAA | 2.55
GUCCUGUGCUACACAUCGUAUGUACCGAAUCGGAAAAAGGGGAAAAAGGGAAAAAGGGAAAGUAUUAUGUUACGCCGUUCGGAUCUGCAC | -0.821
UGGGAGGUGGAUUUUGUUUAUUUUUUUAGCUCAUUUCCAGGGGUGGGAAUUUUUUUUUAAUAUGUGUCAUGAAUAAAGUUGUUUUUGACA | 3.27

Set 2
Target: Histone acetyltransferase KAT6A, winged helix 2, GST fusion (KAT6A, Homo sapiens, UniProt Q92794, residues 85-181)
Technique: protein binding microarray
Form: double-stranded DNA, one strand shown
Matrix: in vitro
Concentration: not given
Setting: 8-mer, flanks averaged, mean of 2 arrays, mostly near background
Relative to: not given
Reading: higher = stronger binding
Construct (chain): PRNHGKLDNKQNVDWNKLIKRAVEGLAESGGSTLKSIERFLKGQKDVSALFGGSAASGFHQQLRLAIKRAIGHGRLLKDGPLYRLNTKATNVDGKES
Oligonucleotide | E-score
CGACATAA | 0.0348
CCTTGACG | -0.0733
AGTCGCCA | -0.0435
CGGGACAA | -0.0325
GTTATTGA | 0.083
AAAGAGGC | -0.064
ATTCTAAG | -0.0891
ATACCCAT | -0.0709
GTACTCAA | -0.232
CAACTACA | 0.0515
GGCGTCCA | 0.045
ATAGTCCA | -0.0534
GGGGTTAA | -0.139
GTTATTCA | 0.0835
ACTCACTA | 0.0194
ACATTAGA | -0.121
CTTACCGC | 0.105
GGAAGATA | -0.0522
ATTATTAA | 0.126

Set 3
Target: Prothrombin, mature alpha-thrombin (F2, Homo sapiens, UniProt P00734)
Technique: aptamer microarray, sandwich
Form: DNA with 2'F-ANA
Matrix: in vitro
Concentration: 200 nM
Setting: whole 15-mer aptamer, many near background
Together with: Cy3 exosite-II aptamer, 400 nM
Reading: higher = stronger binding
Oligonucleotide: GGTTGGTGTGGTTGG
Modification | mean fluorescence intensity [a.u.]
2'F-ANA at 3 4 6 8 12 13 14 15 | 344
2'F-ANA at 1 5 7 9 11 | 103
2'F-ANA at 1 3 4 6 8 9 11 13 | 123
2'F-ANA at 2 6 9 10 11 14 15 | 79.1
2'F-ANA at 4 8 12 13 15 | 398
2'F-ANA at 1 2 3 4 5 7 9 10 11 12 14 | 48.5
2'F-ANA at 2 7 8 9 10 | 185
2'F-ANA at 1 2 3 6 8 10 11 13 | 61
2'F-ANA at 1 7 8 12 14 15 | 116
2'F-ANA at 1 5 6 7 8 9 12 13 | 78.7
2'F-ANA at 1 3 4 5 6 7 9 10 12 13 | 48.5
2'F-ANA at 2 3 6 7 8 9 | 742
2'F-ANA at 2 3 7 9 11 12 13 14 15 | 445
2'F-ANA at 4 5 7 8 11 13 | 53.5
2'F-ANA at 3 4 6 8 9 10 12 13 | 219
2'F-ANA at 2 5 6 8 9 11 12 15 | 115
2'F-ANA at 4 9 10 15 | 82.8
2'F-ANA at 2 7 8 10 11 15 | 121
2'F-ANA at 3 6 12 13 | 1200
2'F-ANA at 2 4 9 10 12 14 | 76.3
2'F-ANA at 1 2 4 5 6 7 8 9 13 15 | 70.7
2'F-ANA at 2 4 5 6 7 9 10 11 12 | 72.2
2'F-ANA at 1 2 3 4 5 7 8 9 10 11 | 77.1
2'F-ANA at 1 2 4 5 6 8 11 | 148
2'F-ANA at 1 5 7 8 12 13 | 94.7

Set 4
Target: RNA binding protein fox-1 homolog 2, RRM domain, GST-SBP tag (RBFOX2, Homo sapiens, UniProt O43251-10, residues 100-194)
Technique: RNA Bind-n-Seq
Form: RNA
Matrix: in vitro
Concentration: 365 nM
Setting: natural RNA segment, single round, ends assumed
Relative to: no-protein control
Reading: higher = stronger binding
All sequences stand within: GGGAGUUCUACAGUCCGACGAUC … UGGAAUUCUCGGGUGCCAA
Residues (chain): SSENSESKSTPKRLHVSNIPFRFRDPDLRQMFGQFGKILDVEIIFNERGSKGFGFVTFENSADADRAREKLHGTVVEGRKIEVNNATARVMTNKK
Oligonucleotide | RBNS enrichment (R)
GGGAAAUCACAGUUCAUCACUUGAGCAUCAUAGCCUUACCCCUCGCCCCUGGUCCUACUCCUGCCUCGGUGAUAGAAGGAGGCAGGGUAAGGGUAUGCCCCUGGCCACUA | 0.298
CAACUAAUGAUUGUUCCCCUCCUUCUCCCACCACCAAGUUCUUUGUCCUUCCAACCUCCCGGAAAGGGACAAAGGCUCAACAUACUGCAGGACUCCAAAAGGGAAGAAAA | 0.527
UAAUCCUGACAUACAGAACAAAGAAUGCAGUAACAUUAGCCCUGCCAGGUCACGUGUAGGACGUGCUUAUCCAGUUUUUUCCCCCUUUACCUGCAUAGUUGCUACAUACA | 0.52
CAUGAUGUGAACCUUGGUUUUGAACUCUGUUCCUGCCCCUCCCCGACCGCCCCAGCCUGUGCCCGCCCCGUGCCUGCCGUGGCUGGUGGGUGGCGGUGGUGGGGCCGGGU | 0.328
GCAGCUCCCAGCAUGCUCCGUGAUGUUCAGUGGGCAGCAUUACCCCCUCUGCUGCCUCCCGCCCCCGCUUAUCCAGGCGUGCACCAUGCAGCAGCUGCCUGUGCCCUAUC | 10.8
UGCUCACCUGGCUCUGGAGGGCUGCCCUGCAGCUGGGCCUGGGGACAGGUCGGCUGUGGGGCAGCUCAGUACCCUCCCUGAGGCUCACGGUGGCUCCGAGCAUGAGGUCC | 1.46
AAAUGGUUCAAUGAAAAACUAUAGCUAAAAUAUGUAAACCUUUCUAGGUAAACCGCUUGCCUUCAUCUUGAGUCGGAAUAUAUUUAAAUAAAUUGUGUUAUCUCUUGCCA | 1.19
AAAAGAAUCCCUUGAGCAUCUCCCUAGGAGUCCACCCCCUGGAUUCCUUUACUCAAGGGUUUGGGGAGCAGCCCACAGGAGCGCUGCCUCCAUUUGACAUGCCUUCGGGG | 0.366
AACAUUUUAAAGACUAAUAUUGCUGAUACUUGAAAAAUCAAUCUCAACUAGAUUUUAAGUAGCAUCCAUAGACUUACUCUUUUUGAGCUUGAAGGACUAAAUUAUUAAUU | 0.521
CCAGACGUGAGACAAACAAGGACUUUUUUUUUUAUAUAGAGCCAUCCAUAAAAUCCUAAGCCCUUUUAUUAAUGUAUAACCAGGAGAACAUCUGUGCCAACGGUUGGACU | 0.501
GAACGGGGCCCAGGGGGAGGCAGGAGAGGAGGGUUCCGGUCCCAUGUCACCUUCUCAUUUGCUGUGUGACUUUGGCCCACUCACAUUCUCUUUGGGCCUCAGUUUUAUCA | 0.497
ACACACACACACACACACAUAUUUGUAACAUAUUGUGACCAAAUGGGCCUCAAAGAUUCAAAGAUUAAAAACAAAAAGCUUUUGAUGGAAAAGAUGUGGGUGGAUAGUAU | 0.73

Some of these lines once more (set 3):
Modification | mean fluorescence intensity [a.u.]
2'F-ANA at 1 5 6 7 8 9 12 13 | 78.7
2'F-ANA at 1 3 4 5 6 7 9 10 12 13 | 48.5
2'F-ANA at 2 3 6 7 8 9 | 742
2'F-ANA at 2 3 7 9 11 12 13 14 15 | 445
2'F-ANA at 4 5 7 8 11 13 | 53.5
2'F-ANA at 3 4 6 8 9 10 12 13 | 219
2'F-ANA at 2 5 6 8 9 11 12 15 | 115
2'F-ANA at 4 9 10 15 | 82.8
2'F-ANA at 2 7 8 10 11 15 | 121
